# Measurements of several laboratories.
# Each line is one published result; not all experiments were run side by side. ± marks the error that the study gave. Where no end group is shown, it is not given here.
# B1: PDE6H (Homo sapiens, UniProt Q13956); sequence looked up; chain MSDNTTLPAPASNQGPTTPRKGPPKFKQRQTRQFKSKPPKKGVKGFGDDIPGMEGLGTDITVICPWEAFSHLELHELAQFGII
# B2: BMP4 mature (UniProt P12644); sequence looked up; chain SPKHHSQRARKKNKNCRRHSLYVDFSDVGWNDWIVAPPGYQAFYCHGDCPFPLADHLNSTNHAIVQTLVNSVNSSIPKACCVPTELSAISMLYLDEYDKVVLKNYQEMVVEGCGCR
# B3: CYCS (Homo sapiens, UniProt P99999); sequence looked up; chain MGDVEKGKKIFIMKCSQCHTVEKGGKHKTGPNLHGLFGRKTGQAPGYSYTAANKNKGIIWGEDTLMEYLENPKKYIPGTKMIFVGIKKKEERADLIAYLKKATNE
# B4: UGT1A9 (Homo sapiens, UniProt O60656); chain GKLLVVPMDGSHWFTMRSVVEKLILRGHEVVVVMPEVSWQLGRSLNCTVKTYSTSYTLEDLDREFKAFAHAQWKAQVRSIYSLLMGSYNDIFDLFFSNCRSLFKDKKLVEYLKESSFDAVFLDPFDNCGLIVAKYFSLPSVVFARGILCHYLEEGAQCPAPLSYVPRILLGFSDAMTFKERVRNHIMHLEEHLLCHRFFKNALEIASEILQTPVTEYDLYSHTSIWLLRTDFVLDYPKPVMPNMIFIGGINCHQGKPLPMEFEAYINASGEHGIVVFSLGSMVSEIPEKKAMAIADALGKIPQTVLWRYTGTRPSNLANNTILVKWLPQNDLLGHPMTRAFITHAGSHGVYESICNGVPMVMMPLFGDQMDNAKRMETKGAGVTLNVLEMTSEDLENALKAVINDKSYKENIMRLSSLHKDRPVEPLDLAVFWVEFVMRHKGAPHLRPAAHDLTWYQYHSLDVIGFLLAVVLTVAFITFKCCAYGYRKCLGKKGRVKKAHKSKTH
# B5: GSTP1 3-210 (Homo sapiens, UniProt P09211); QSY 35 label; chain PYTVVYFPVRGRCAALRMLLADQGQSWKEEVVTVETWQEGSLKASCLYGQLPKFQDGDLTLYQSNTILRHLGRTLGLYGKDQQEAALVDMVNDGVEDLRCKYISLIYTNYEAGKDDYVKALPGQLKPFETLLSQNQGGKTFIVGDQISFADYNLLDLLLIHEVLAPGCLDAFPLLSAYVGRLSARPKLKAFLASPEYVNLPINGNGKQ
# UniProt P30041, sequence (whole entry, looked up): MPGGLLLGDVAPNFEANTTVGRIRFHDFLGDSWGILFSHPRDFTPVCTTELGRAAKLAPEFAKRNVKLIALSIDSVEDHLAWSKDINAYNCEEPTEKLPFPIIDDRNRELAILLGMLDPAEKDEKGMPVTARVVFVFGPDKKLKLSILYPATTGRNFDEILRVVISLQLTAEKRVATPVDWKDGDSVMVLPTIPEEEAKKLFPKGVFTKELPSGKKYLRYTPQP
# UniProt P52731, sequence (whole entry, looked up): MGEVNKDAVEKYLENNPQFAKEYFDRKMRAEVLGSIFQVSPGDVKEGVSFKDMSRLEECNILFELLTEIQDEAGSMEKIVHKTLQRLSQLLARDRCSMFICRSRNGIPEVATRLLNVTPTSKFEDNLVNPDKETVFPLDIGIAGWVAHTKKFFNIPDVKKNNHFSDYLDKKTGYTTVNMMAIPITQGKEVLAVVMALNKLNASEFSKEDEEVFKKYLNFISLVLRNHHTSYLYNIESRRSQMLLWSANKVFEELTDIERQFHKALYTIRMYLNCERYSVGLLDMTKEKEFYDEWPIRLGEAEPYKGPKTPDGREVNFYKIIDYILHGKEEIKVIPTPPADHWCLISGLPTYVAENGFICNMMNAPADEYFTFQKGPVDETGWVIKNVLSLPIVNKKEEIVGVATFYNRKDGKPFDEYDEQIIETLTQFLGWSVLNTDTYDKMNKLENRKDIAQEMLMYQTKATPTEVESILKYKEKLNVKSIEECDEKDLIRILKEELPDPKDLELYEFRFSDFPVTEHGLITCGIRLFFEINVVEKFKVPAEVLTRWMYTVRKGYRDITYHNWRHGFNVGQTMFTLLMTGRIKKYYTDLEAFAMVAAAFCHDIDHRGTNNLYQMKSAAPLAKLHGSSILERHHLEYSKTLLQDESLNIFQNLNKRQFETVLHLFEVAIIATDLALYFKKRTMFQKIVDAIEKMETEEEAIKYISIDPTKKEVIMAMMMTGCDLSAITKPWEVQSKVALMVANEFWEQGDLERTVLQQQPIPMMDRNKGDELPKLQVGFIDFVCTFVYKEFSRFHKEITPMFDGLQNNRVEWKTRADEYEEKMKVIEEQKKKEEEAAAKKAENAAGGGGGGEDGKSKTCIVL
# UniProt Q9NPG2, sequence (whole entry, looked up): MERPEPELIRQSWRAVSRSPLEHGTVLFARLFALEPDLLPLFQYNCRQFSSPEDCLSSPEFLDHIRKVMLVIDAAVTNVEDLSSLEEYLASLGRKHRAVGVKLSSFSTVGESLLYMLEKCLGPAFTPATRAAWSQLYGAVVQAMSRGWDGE
# UniProt Q00013, sequence (whole entry, looked up): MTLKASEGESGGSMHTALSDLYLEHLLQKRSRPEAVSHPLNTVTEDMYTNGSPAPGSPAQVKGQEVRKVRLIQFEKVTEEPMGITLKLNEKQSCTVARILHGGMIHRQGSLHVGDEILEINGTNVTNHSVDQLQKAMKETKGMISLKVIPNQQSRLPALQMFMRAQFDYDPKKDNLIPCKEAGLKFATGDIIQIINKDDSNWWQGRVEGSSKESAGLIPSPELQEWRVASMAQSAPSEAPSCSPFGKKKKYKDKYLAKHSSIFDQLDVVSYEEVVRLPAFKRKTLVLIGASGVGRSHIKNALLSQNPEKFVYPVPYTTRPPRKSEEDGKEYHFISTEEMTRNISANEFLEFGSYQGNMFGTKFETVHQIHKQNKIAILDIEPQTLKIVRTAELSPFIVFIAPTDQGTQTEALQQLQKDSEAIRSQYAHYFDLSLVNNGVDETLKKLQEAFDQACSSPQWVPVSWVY
# UniProt P31266, sequence (whole entry, looked up): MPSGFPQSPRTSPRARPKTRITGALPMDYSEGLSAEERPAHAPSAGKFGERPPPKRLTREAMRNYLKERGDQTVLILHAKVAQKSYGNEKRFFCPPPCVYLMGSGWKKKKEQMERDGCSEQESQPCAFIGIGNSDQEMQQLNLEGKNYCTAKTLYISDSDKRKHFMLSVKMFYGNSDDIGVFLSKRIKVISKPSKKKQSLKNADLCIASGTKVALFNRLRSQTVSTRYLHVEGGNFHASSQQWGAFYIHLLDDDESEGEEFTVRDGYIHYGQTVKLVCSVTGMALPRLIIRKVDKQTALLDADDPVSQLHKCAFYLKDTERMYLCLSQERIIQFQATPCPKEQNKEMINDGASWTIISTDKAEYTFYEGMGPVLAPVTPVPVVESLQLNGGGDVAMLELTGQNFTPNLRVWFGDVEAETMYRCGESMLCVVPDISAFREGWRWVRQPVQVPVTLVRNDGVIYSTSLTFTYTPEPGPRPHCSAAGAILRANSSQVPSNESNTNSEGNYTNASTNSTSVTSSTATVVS
Molecule,target or system,test,system,setting,quantity,result
"MENVKKATRTTTWMVPTAQ (L3MBTL3 52-70 A60R (Homo sapiens, UniProt Q96JM7-2); sequence looked up)","Rbpj 53-474 (Mus musculus, UniProt P31266)",ITC,peptide,"pH 6.5, 25 °C, NaCl 150 mM, one site model",Kd,4.2 µM
"MYBPC3 (Homo sapiens, UniProt Q14896)",ACTC1 F-actin (Oryctolagus cuniculus),co-sedimentation,,apparent,Kd,24 ± 7.6 µM
"{5,6‑carboxyfluorescein}-ELRAIIKKIWKRTSMKLLDQVV (CACNA1C 1614-1635 (Oryctolagus cuniculus); N-terminal fluorescein)","Calm1 (Rattus norvegicus, UniProt P0DP29)",fluorescence polarisation,peptide,"pH 7.4, 22 °C, 100 mM KCl, without Ca2+",Kd,85 ± 35 µM
"KWDTANNPLYKEATSTFTNITYRGT (ITGB3 764-788 (Homo sapiens, UniProt P05106); sequence looked up)",Myom1 IgC2 domain 4 (Mus musculus),ITC,peptide,"pH 6.8, 25 °C, NaCl 50 mM",Kd,10.7 ± 9.9 µM
B1 (PDE6H),"PDE6C GAF-A/GAF-B 42-458 (Gallus gallus, UniProt P52731)",BLI,,"30 min, added: cGMP 100 µM",Kd,10 µM
EPB41L2/CALM1 (Homo sapiens),"MPP1 (Homo sapiens, UniProt Q00013)",resonant mirror detection,,NaCl 100 mM,Kd,0.215 µM
B2 (BMP4 mature),"Grem2 22-168, glutathionylated (Mus musculus, UniProt O88273)",SPR,,"pH 7.5, 25 °C, NaCl 500 mM, apparent, steady-state",Kd,0.0785 ± 0.0058 µM
B3 (CYCS),"NGB (Homo sapiens, UniProt Q9NPG2)",ITC,,,Kd,4.67 µM
B4 (UGT1A9),O=C(/C=C/c1ccccc1O)c1ccccc1,steady-state kinetics,,"pH 7.4, 37 °C",Vmax/Km,2400 µL/min/mg
B5 (GSTP1 3-210),"PRDX6 1-224, Alexa 546 label (Homo sapiens, UniProt P30041)",FRET,,"apparent, without GSH pre-incubation",Kd,0.317 µM

# Excerpt of the above:
Molecule,target or system,test,system,setting,quantity,result
B2 (BMP4 mature),"Grem2 22-168, glutathionylated (Mus musculus, UniProt O88273)",SPR,,"pH 7.5, 25 °C, NaCl 500 mM, apparent, steady-state",Kd,0.0785 ± 0.0058 µM
